Results from different studies.
A part holds a random share of what one study measured. Substitutions count along the parent as printed.
Sequence of UniProt O15294 (whole entry, looked up): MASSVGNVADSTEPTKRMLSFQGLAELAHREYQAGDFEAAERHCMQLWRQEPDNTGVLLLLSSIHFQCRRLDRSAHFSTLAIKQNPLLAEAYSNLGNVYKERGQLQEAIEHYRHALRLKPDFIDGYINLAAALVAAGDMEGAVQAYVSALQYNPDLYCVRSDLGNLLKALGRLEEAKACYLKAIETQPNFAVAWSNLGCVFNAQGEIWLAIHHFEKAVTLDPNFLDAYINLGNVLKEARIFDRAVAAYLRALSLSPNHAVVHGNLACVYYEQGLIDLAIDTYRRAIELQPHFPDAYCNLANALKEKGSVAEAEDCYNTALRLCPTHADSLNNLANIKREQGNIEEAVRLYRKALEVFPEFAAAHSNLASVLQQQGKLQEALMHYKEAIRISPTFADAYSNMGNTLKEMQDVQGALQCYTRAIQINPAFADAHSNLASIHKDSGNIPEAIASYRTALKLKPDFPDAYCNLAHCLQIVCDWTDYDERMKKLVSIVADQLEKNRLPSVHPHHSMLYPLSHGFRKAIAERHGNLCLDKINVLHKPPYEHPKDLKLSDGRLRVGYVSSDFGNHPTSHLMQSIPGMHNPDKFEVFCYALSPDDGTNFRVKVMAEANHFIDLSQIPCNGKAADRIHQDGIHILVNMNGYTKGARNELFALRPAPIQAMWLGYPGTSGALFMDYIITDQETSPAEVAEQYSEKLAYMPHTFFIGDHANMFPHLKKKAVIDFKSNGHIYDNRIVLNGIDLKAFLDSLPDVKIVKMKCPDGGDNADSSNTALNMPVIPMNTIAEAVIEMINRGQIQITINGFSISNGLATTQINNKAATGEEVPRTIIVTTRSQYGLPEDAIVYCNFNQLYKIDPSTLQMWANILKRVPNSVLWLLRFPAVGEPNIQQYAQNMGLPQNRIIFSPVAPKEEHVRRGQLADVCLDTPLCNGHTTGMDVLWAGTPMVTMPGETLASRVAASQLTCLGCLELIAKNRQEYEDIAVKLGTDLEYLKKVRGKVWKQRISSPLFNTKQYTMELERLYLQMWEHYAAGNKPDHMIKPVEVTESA

Study 1 — technique: RNA Bind-n-Seq; form: RNA; matrix: in vitro; tested at: 200 nM; setting: whole 134-nt RNA, ends assumed; added: 150 mM LiCl; baseline: input library; reading: higher = stronger binding; endpoint: log2 enrichment; each molecule: 7-deaza-guanosine replaces G
Target: Fragile X messenger ribonucleoprotein 1, C-terminal low-complexity region (Fmr1, Mus musculus, UniProt P35922)
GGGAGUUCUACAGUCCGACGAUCAUCAUUUCAUUUUUAUAAUUAUACAUUAGACAUUGGCACUUGUGUAAAACUGUCCCUGCAGAUUGAGCAGGAAGUAAAAACAAAUGGAAAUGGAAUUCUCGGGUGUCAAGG: -1.19
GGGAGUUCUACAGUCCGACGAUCUGGGAGGUGGAUUUUGUUUAUUUUUUUAGCUCAUUUCCAGGGGUGGGAAUUGUUUUUUAAUAUGUGUCAUGAAUAAAGUUGUUUUUGAAAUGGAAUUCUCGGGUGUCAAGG: -0.264
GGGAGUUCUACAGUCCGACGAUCGCAGGAAGUAAAAACAAAUGGAAAUGCUUCGGAUAGUGGCAGGGGUGGGGGUUGCUAAGGAAAGGGUGGAAAGGGAGUGGGUAAAGAGUUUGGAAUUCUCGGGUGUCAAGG: 1.54
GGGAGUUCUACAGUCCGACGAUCUCAAGUCCUGUGCUACACAUCGUAUGUACCGAAUCGGGCCGGGGCCGGGCCGGGGAAAGUAUUAUGUUACGCCGUUCGGAUCUGCACUUCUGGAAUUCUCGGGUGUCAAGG: 0.458
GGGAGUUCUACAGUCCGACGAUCAGUCCUGUGCUACACAUCGUAUGUACCGAAUCGGCCCCCGGGGCCCCCGGGCCCCCGGAAAGUAUUAUGUUACGCCGUUCGGAUCUGCACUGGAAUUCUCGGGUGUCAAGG: -2.47
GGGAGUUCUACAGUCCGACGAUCCAAGUCCUGUGCUACACAUCGUAUGUACCGAAUCGGUUUUUUUGGAGGUUUUUGGAAAGUAUUAUGUUACGCCGUUCGGAUCUGCACUUCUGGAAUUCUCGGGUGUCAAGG: -1.23
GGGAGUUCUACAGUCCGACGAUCUGGGAGGUGGAUUUUGUUUAUUUUUUUAGCGCAUUUCCAGGGGUGGGAAUUUUUUUUUAAUAUGUGUCAUGAAUAAAGUUGUUUUUGAAAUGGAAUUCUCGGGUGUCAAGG: 0.453
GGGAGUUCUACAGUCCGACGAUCUUCCUCAAGUCCUGUGCUACACAUCGUAUGUACCGAAUCGGAGGGAGGAGGAAAGUAUUAUGUUACGCCGUUCGGAUCUGCACUUCCAGCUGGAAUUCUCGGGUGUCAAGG: -2.42

Study 2 — target: CCNB2, cyclin fold, Cln2 fusion (human); technique: yeast growth competition, sequencing; matrix: yeast; setting: strong parent motif; baseline: not given; reading: higher = stronger binding; endpoint: normalised enrichment score
Starting sequence: viral docking peptide; KKAKRRLFTISDS; partner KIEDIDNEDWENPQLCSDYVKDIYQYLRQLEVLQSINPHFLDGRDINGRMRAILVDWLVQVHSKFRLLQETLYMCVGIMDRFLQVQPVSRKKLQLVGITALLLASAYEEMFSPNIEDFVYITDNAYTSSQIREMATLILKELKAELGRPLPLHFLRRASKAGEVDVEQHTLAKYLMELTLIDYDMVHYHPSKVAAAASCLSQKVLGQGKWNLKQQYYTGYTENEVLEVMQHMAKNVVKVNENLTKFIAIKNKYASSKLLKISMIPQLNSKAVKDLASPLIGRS
F8A: 0.53
S11A: 0.843
R6A: 0.604
K1A: 0.569
F8L: 0.823
I10A: 0.852
K4A: 0.612

Other studies, line by line
P1: PafA, mature enzyme, eGFP fusion (Elizabethkingia meningoseptica, UniProt Q9KJX5); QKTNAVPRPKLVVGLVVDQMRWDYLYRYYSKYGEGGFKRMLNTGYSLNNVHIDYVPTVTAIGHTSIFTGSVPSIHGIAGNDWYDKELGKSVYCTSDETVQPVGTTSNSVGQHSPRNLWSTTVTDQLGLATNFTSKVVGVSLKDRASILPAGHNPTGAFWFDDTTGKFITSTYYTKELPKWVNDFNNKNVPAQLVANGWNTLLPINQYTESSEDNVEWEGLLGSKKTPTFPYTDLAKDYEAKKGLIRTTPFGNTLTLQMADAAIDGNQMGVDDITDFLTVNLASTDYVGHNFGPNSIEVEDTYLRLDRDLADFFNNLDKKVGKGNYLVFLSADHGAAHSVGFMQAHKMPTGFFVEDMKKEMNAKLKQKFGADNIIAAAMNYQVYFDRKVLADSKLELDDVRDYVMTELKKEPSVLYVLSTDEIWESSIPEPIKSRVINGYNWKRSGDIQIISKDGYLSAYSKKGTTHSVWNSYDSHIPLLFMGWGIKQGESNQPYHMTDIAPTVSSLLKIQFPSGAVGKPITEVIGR
P1 T133G  oxyanion analog dissociation constant (tungstate, free oxyanion; microfluidic competitive inhibition; in vitro, cell-free expressed; not given, derived from inhibition constants, unchanged parent 2230 nM; lower = stronger binding): 1.97 µM
HSQHMFEHEHVVKA  minimum log2 enrichment ratio (UDP-N-acetylglucosamine--peptide N-acetylglucosaminyltransferase 110 kDa subunit (OGT, Homo sapiens, UniProt O15294); binding, phage display NGS; peptide; panning round 2; baseline: input library): 2.27
P1 L202V  oxyanion analog dissociation constant (tungstate, free oxyanion; microfluidic competitive inhibition; in vitro, cell-free expressed; not given, derived from inhibition constants, unchanged parent 2230 nM; lower = stronger binding): 2.58 µM
